Literature values, collected from citations in different studies.
Each numbered part shows a few of the values that one paper quotes. Numbers after ± are the reported error.
Chain of UniProt P22002 (whole entry, looked up): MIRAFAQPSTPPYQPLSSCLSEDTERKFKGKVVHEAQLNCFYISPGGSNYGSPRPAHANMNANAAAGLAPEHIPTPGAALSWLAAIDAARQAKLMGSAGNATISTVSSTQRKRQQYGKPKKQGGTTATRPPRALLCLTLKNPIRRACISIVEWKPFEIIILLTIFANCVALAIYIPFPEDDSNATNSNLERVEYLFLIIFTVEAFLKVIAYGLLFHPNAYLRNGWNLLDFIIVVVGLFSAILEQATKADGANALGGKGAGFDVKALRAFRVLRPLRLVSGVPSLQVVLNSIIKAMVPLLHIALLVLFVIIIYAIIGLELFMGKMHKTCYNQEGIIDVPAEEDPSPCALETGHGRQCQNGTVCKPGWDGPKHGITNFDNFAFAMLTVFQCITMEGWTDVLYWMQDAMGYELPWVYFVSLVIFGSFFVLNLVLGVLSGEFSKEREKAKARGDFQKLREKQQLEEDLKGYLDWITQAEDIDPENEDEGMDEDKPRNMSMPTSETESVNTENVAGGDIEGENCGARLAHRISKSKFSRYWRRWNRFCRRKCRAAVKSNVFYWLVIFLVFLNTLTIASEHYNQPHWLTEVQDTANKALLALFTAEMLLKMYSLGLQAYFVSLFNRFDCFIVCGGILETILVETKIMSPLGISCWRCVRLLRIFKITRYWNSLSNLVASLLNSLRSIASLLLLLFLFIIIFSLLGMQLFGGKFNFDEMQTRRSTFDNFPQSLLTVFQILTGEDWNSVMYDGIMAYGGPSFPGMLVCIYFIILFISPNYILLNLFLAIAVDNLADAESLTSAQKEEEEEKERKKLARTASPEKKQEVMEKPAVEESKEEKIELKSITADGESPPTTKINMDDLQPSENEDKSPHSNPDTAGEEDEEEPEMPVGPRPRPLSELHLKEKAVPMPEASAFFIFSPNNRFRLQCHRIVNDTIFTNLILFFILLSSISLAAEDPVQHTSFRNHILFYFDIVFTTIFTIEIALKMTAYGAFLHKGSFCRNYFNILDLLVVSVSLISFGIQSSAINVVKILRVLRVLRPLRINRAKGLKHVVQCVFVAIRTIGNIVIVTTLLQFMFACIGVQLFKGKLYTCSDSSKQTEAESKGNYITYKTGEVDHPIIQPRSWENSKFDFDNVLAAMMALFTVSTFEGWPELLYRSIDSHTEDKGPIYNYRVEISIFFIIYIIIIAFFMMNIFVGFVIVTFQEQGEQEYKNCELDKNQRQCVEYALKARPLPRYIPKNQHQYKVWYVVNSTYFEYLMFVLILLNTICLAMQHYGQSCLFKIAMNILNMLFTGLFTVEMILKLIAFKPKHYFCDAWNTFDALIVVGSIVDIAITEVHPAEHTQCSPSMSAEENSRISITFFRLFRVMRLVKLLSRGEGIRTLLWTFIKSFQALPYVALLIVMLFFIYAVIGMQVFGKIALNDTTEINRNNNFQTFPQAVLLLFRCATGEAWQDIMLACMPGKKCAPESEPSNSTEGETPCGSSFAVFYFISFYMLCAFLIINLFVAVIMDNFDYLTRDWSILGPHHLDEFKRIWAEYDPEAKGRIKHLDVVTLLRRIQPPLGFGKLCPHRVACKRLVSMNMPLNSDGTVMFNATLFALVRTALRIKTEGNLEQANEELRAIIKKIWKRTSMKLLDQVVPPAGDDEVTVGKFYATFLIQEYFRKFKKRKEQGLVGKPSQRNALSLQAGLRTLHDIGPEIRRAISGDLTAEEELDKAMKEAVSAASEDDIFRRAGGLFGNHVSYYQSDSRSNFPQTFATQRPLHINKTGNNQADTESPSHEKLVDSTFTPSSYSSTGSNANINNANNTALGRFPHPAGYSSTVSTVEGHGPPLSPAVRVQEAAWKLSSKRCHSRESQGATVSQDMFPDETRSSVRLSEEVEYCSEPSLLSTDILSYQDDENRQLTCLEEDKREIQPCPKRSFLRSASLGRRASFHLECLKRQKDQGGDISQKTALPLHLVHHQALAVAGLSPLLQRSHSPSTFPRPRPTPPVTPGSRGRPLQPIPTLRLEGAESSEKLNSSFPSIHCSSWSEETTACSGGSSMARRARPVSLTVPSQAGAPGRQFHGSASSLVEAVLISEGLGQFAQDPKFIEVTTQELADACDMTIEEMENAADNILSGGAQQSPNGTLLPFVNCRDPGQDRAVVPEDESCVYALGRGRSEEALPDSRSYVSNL
Chain of UniProt P41595 (whole entry, looked up): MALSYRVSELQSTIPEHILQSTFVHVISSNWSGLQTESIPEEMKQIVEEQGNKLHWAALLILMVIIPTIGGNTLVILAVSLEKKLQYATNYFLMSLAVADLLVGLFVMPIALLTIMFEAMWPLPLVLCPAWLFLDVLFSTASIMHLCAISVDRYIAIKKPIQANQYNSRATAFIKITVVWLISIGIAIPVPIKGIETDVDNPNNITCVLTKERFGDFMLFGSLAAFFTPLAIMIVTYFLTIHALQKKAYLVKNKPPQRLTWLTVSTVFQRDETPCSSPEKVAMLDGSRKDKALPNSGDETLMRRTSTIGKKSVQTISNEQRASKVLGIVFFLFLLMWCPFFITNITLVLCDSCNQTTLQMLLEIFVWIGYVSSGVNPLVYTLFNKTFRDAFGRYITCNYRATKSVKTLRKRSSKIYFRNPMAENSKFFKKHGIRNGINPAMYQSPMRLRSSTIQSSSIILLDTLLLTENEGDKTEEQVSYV
Chain of UniProt P04789 (whole entry, looked up): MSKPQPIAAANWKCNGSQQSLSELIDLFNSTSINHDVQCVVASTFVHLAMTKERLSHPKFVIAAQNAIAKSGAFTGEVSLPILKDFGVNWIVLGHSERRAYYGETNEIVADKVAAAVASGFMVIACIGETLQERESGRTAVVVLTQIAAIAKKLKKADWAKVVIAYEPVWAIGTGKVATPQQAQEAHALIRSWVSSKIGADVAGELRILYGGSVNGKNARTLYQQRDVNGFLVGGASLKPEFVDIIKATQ
Chain of UniProt P00811 (whole entry, looked up): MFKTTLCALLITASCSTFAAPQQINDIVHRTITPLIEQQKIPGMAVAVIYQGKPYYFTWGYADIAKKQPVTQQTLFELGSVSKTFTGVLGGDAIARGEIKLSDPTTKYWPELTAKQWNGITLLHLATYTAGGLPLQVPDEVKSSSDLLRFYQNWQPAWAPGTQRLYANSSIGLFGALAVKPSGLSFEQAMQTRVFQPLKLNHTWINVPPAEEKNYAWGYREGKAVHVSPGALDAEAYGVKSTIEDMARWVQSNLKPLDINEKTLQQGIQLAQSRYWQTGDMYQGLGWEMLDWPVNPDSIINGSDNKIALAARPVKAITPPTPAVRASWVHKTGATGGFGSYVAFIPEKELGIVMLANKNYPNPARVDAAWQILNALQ

Series 1
Target: HLA class I histocompatibility antigen, A alpha chain, allele A*26:03 (Homo sapiens, UniProt P04439)
Read-out: peptide-MHC binding
Molecule type: peptide
With `YWMGGTTYF` the IC50 was > 20 µM.
`YECTSRHFT` has an IC50 of > 20 µM.
With `GLAEKPNDY` the IC50 was > 20 µM.
For `RSLFNTVAVLY`, the IC50 was > 20 µM.
The IC50 of `LFLSFCSLF` is reported as > 20 µM.
With `QVIFKCVPK` the IC50 was > 20 µM.
With `SLYKYLLLR` the IC50 was > 20 µM.
The IC50 of `VTFFCVMTY` is reported as > 20 µM.
For `VELQIGWTV`, the IC50 was > 20 µM.
The IC50 of `RSLFNTVATLY` is reported as > 20 µM.
The IC50 of `EKLKSLFNTV` is reported as > 20 µM.
`VMAASGAPF` has an IC50 of > 20 µM.
The IC50 of `EELRSLFNTV` is reported as > 20 µM.
`TQRKKTLGF` gave an IC50 of 0.068 µM.
For `PTIPEQKCM`, the IC50 was > 20 µM.
The IC50 of `RMIESRMSK` is reported as > 20 µM.
`FRHSVVVPY` has an IC50 of > 20 µM.
`IYTVIYYIF` gave an IC50 of > 20 µM.
`ETALAIIRR` gave an IC50 of 1.91 µM.
`DIKDTKEAL` gave an IC50 of > 20 µM.
The IC50 of `YHRPLTGYM` is reported as > 20 µM.
`IQRRGAQFQ` gave an IC50 of > 20 µM.
With `FVFEATKLY` the IC50 was 0.203 µM.
For `RGRGVAIHR`, the IC50 was > 20 µM.
For `RYPGVMYAF`, the IC50 was > 20 µM.

Other studies, line by line
Ar: Androgen receptor (Ar, Rattus norvegicus, UniProt P15207)
Chain of UniProt P15207 (whole entry, looked up): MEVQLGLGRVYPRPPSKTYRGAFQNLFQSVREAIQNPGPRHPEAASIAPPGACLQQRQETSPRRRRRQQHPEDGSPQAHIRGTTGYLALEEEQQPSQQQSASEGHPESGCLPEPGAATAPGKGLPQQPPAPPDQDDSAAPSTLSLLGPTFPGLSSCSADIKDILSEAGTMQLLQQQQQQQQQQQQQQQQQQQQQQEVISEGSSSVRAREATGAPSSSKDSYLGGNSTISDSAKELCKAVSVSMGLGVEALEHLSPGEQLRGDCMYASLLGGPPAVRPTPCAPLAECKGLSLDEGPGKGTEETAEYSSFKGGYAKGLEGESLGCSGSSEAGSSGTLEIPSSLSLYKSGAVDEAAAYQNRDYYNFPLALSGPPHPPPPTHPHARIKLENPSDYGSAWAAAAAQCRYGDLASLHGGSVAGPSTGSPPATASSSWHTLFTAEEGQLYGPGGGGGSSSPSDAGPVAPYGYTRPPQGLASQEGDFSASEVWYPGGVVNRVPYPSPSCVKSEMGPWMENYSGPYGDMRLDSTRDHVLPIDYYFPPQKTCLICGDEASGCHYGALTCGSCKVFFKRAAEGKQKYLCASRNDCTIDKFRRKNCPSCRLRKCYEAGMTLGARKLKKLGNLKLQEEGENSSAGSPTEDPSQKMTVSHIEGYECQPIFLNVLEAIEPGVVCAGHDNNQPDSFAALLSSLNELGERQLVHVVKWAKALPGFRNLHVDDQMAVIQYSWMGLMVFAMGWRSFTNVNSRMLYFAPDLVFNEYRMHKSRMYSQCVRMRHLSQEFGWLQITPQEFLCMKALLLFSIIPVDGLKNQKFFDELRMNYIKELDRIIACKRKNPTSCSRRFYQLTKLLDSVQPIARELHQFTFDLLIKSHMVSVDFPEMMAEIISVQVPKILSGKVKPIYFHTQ
`CCOC(=O)C1=C(C)NC(C)=C(C(=O)OC)C1c1cccc([N+](=O)[O-])c1` (centres unmarked) gave a Ki of 0.00046 µM (Cacna1c (Rattus norvegicus, UniProt P22002)).
Under Ki change, `CCC[C@@H]1CC(=O)N([C@@H](CC)C(N)=O)C1` is recorded as “no effect” (SV2B G240C; concentration not given; reference: wild-type SV2B).
For `O=C[C@H](O)COP(=O)(O)O`, the Km was 3.8 mM (Triosephosphate isomerase, glycosomal (Trypanosoma brucei brucei, UniProt P04789); substrate; pH 4.9).
The Vmax of `Cc1cccc2c1ccc1cc(C(C)C)ccc12` is reported as 0.006 nmol/min/mg (substrate; human liver microsomes).
`COc1ccc(C[C@H]2NC[C@H](O)[C@H]2OC(C)=O)cc1` has an IC50 of 0.08 µM (Cryptosporidium).
`O=C1C2(Cl)C3(Cl)C4(Cl)C(Cl)(Cl)C5(Cl)C3(Cl)C1(Cl)C5(Cl)C24Cl` (centres unmarked): activity class “active” (Ar; binding; concentration not given).
`O=C(O)c1sccc1S(=O)(=O)Nc1cccnc1` gave a Ki of 120 µM (Beta-lactamase (ampC, Escherichia coli K-12, UniProt P00811); inhibitor).
`O=C(c1ccc(F)cc1)C1CCN(CCn2c(=O)[nH]c3ccccc3c2=O)CC1` gave a Hill coefficient of 0.6 (HTR2B (Homo sapiens, UniProt P41595)).
`CNC(=NC#N)NCCCCc1c[nH]cn1` has an ED50 of 81.7 nmol (antinociception, hot plate test; rat; intracerebroventricular, 5 min).
`NC(=O)O[C@@H](Cn1ncnn1)c1ccccc1Cl` gave a protective index of 13.4 (male rat; i.p., MES seizure test).
The NOAEL of `CCc1c2c(nc3ccc(OC(=O)N4CCC(N5CCCCC5)CC4)cc13)-c1cc3c(c(=O)n1C2)COC(=O)[C@]3(O)CC` is reported as 1.2 mg/kg (refers to: male reproduction; rat; dosing before to early pregnancy).
Under inhibition, `CCCCCc1cc(O)c2c(c1)OC(C)(C)c1ccc(C)cc1-2` is recorded as “inhibited” (CYP2C19, human; enzyme activity, inhibitor; human liver microsomes; 10 µM).
`CCOC(=O)C1=C[C@@H](OC(CC)CC)[C@H](NC(C)=O)[C@@H](N)C1` has an oral bioavailability of 35% (rats; 10 mg/kg, single dose).
`NCCc1ccc(Oc2ccc(O)cc2)c(I)c1` gave an inhibition of 77.6% ([3H]dopamine uptake, inhibitor; rat brain synaptosomes; 10 µM).
Under activity class, `O=c1cc(-c2ccccc2)oc2ccccc12` is recorded as “inactive” (Ar; concentration not given).
`COC(=O)[C@@H]1C[C@H](OC(C)=O)C(=O)[C@H]2[C@@]1(C)CC[C@H]1C(=O)O[C@H](c3ccoc3)C[C@]21C` gave a Ki of 0.0191 ± 0.0046 µM (kappa opioid receptor I133A).
`CCCCCc1cc(O)c(C/C=C(\C)CCC=C(C)C)c(O)c1`: inhibition “inhibited” (CYP2C19, human; enzyme activity, inhibitor; human liver microsomes; 10 µM).
The IC50 ratio of `C[C@]12C=CC(=O)C=C1C(CSC[C@H](N)C(=O)O)C[C@@H]1[C@@H]2CC[C@]2(C)C(=O)CC[C@@H]12` (some centres unmarked) is reported as ~12 fold (aromatase; estrone formation; reference: compound over exemestane).
For `O=C1N[C@@H]2CCCC[C@H]2N[C@@H]1c1c[nH]c2ncccc12`, the IC50 was > 100 µM (COLO 320 ABCB1-resistant colon; cytotoxicity).
With `N#CC(=Cc1ccc(O)cc1)C(=O)O` the Ki was 130 µM (band 3 anion transport protein (human); inorganic anion transport, inhibitor; human red blood cells).
Under “maximum tolerated dose”, `COc1cc2c(Oc3ccc4[nH]c(C)cc4c3F)ccnc2cc1OCC1(N)CC1` is recorded as 12 mg/day (adult patients, refractory solid tumours).
`CC(=O)O[C@@]12CO[C@@H]1C[C@H](O)[C@@]1(C)C(=O)[C@H](OC(=O)C3CC3)C3=C(C)[C@@H](OC(=O)[C@H](O)[C@H](C=C(C)C)NC(=O)OC(C)(C)C)C[C@@](O)([C@@H](OC(=O)c4ccccc4)[C@H]21)C3(C)C` has an IC50 of 0.0805 ± 0.00762 µM (MCF7/PTX, paclitaxel-resistant; cell viability).
The protective index of `CC[C@@H](C(N)=O)N1CCCC1=O` is reported as > 44.2 (mouse; i.p., corneal kindling model).
For `CNC(=NC#N)NCCCCCc1c[nH]cn1`, the ED50 was 106 nmol (antinociception, hot plate test; rat; intracerebroventricular, 5 min).
The Vmax of `c1ccc2c(c1)Cc1ccccc1-2` is reported as 1.36 nmol/min/mg (substrate; human liver microsomes).
